Published values collected from several papers.
Parts stem from different laboratories: compare values within a part only.

Sample 1 — method: RNA Bind-n-Seq; form: RNA; sample: in vitro; concentration: 365 nM; reference: no-protein control; direction: higher = stronger binding
Target: RNA binding protein fox-1 homolog 2, RRM domain, GST-SBP tag (RBFOX2, Homo sapiens, UniProt O43251-10, residues 100-194)
Setting: natural RNA segment, single round, ends assumed
All sequences stand within: GGGAGUUCUACAGUCCGACGAUC … UGGAAUUCUCGGGUGCCAA
Target sequence (chain): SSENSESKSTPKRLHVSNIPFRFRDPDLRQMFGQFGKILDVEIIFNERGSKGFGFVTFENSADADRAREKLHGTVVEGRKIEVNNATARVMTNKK
Sequence	RBNS enrichment (R)
AUUUGACUGUGGAAGAAGACACUAAGAGCCAGCAGAAGGGCCUGAGCUGCCUCAUUAGCCUGGCUUCAUUUGGGGAGCUCCUGACAGUGUCCCGAGUAGGUGCCCAGCCC	0.219
GGCUGCUGGACUUCCUGCAGGGGCUCCAGUGAAGCCCAGCACUGCUGCAGGGGGUGGGCUGCCUGCCUGCUCUGAGCUCUCUCUUGCACGCUCUCUCUUCUCUCCCAGGC	3.57
CCCUUGGAGCUAGUCCCCUCAGCCUCAACUUUGAUCUGGCCUUUAGCCUCAAAGCUGCUGUACCUGCACAUGGUCCUGAGAACAUCUCUCUAGGCCUGUACCACACCUCU	0.204
UAAAUUUUGUUGAAUAAAUUAAGCUCAACUAUUUGUAUUUCAAUAGUUGAGUUGUAUUGCUUCCUGUUCUUCAAGCUUAAUUUGAACUGUCUAAUAAAAAGAAGUAAUUA	0.738
AAAGCAGCAAUAAAACUGCUCCUACCCACAGCCACGGAUCUUCCAAACCUAGCCCCGCUCUCAGGCCUCUACCCAGCAGCCAGAACACAGCAAGAGUUGAGGUGAAGCAA	0.341
UCUGGGGACACUGACUCAGCGAGUGUGUUCCAGACUGACUUCCAGGACACUGUGUGACGUCAGCAUCUCAGACAGGCAGGAGAAAAGCACCAGAUACCUGGCUUUCCAUG	0.677
CUGUAAGACAGUCCUUCAAGUUUUUACACAGAAGAGAAUUUUGAGUGUCCUCUCUAUGUUUCAAAUAGCAAAUCUUGUUCAUUAAAAUACUUAUUAAAAGAUUUGAAUAC	0.482
UCUUGAUGGUUUCCAGGCCUCGUUAUGCAUGGUUUGCUUGAUGCCCAUUUUUUGUGCCUUGUGCUGUUGGAUGGUAACGACCACUCACCAUGUAAACACAGUACCUCAGU	7.03
ACUCCCUAGGAAAGUAACGGGCACCAGGCUUCGUGACUUUCAUUCUCAUUUAUAAGUUAGACAUUCAUUCACUAGAACAUUUAUGCUCAGAAUCUUCCUUAAGAGGGUGU	0.408
UCAGCACUCUGCAGAGCACAGGCUGAGCUGCUCUGAGUACGGGGUGGCCUGAGUGUGGAGGACAAAGGAGGUCCAUGUCCUGCUUGCUGGAGACAGCUGGCCAGAAUCGU	0.521
CAGUGUGCACCGGUCACUACAUUCAGGCUAUUUGAGGUUUUCAUAUGCUGCAUUUCUUUGUUUUUAACACCUGGUUUUAUAGGUUCUCUUUCGUUUGUUAAGAAACUGGA	0.709
AGGAAACACUGAUUUGCUUUCUGUUUCCCAUAUCUCACCUCUAGGAUAUGAUGGAAGAAGUGCUUGAAAGAGAAUUUUAGCAGAUGGUACUUUUCUCAGUGACCUCUGGA	0.512

Sample 2 — method: protein binding microarray; form: double-stranded DNA, one strand shown; sample: in vitro; concentration: not given; reference: not given; direction: higher = stronger binding
Target: Histone acetyltransferase KAT6A, winged helix 2, GST fusion (KAT6A, Homo sapiens, UniProt Q92794, residues 85-181)
Setting: 8-mer, flanks averaged, mean of 2 arrays, mostly near background
Target sequence (chain): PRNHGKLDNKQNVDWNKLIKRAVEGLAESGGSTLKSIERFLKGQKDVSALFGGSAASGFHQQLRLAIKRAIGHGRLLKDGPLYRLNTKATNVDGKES
Sequence	E-score
CCACGCAA	0.201
GAGTGATA	-0.0767
GATTCGCA	0.0825
GTGTTACA	-0.0825
AACGTTAG	-0.116
ATAGGGTC	-0.0972
AAGCCAAG	-0.00301
CGCCATAC	0.00122
CTTACTCA	-0.0855
AGCCACGC	0.0386
TCAGGTAA	-0.174
ATCCGCAT	0.0979
AAACTTCT	0.208
GGTAATTA	-0.0839
ATAGTTCC	-0.00271
TGTACAAA	0.0528
AGTGCCGG	0.0932
ACCTCTAG	0.0238
ACTAACGA	-0.0319
AAGGTAGA	-0.125
AAACCCGA	0.126
CGGAAGTA	-0.119
CGCGCCGA	0.197
CGGCGAGC	0.226
CTACATCA	-0.171

Sample 3 — method: RNA Bind-n-Seq; form: RNA; sample: in vitro; concentration: 200 nM; setting: whole 134-nt RNA, ends assumed; added: 150 mM KCl; reference: input library; direction: higher = stronger binding
Target: Ras GTPase-activating protein-binding protein 1, full length (G3BP1, Homo sapiens, UniProt Q13283)
UniProt Q13283, sequence (whole entry, looked up): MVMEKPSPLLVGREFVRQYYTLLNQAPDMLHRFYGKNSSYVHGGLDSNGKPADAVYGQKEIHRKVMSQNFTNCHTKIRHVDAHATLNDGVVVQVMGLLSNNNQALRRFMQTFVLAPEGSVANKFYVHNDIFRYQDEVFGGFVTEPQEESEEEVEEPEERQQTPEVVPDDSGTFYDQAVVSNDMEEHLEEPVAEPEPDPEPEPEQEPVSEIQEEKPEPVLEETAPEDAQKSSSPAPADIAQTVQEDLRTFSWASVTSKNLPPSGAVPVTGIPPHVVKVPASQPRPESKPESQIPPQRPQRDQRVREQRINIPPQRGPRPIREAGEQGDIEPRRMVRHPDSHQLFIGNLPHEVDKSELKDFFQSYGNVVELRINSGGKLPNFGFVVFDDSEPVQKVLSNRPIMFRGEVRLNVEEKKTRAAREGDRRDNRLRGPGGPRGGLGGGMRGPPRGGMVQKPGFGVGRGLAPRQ
All sequences stand within: GGGAGUUCUACAGUCCGACGAUC … UGGAAUUCUCGGGUGUCAAGG
Sequence	log2 enrichment
UGGGAGGUGGAUUUUGUUUAUUUUUUUAGCUCAUUUCCAGGGGUGGGAAUUUUUUUUUAAUAUGUGUCAUGAUUAAAGUUGUUUUUGAAA	0.533
GCAGGAAGUAAAAACAAAUGGAAAUGCUUCGGAUAGUGGCAGGGGUGGGGGAAACUAAGGAAAGGGUGGGAUGGGAGUGGGUAAAGAGUU	0.856
CAAAAUACCAAGGGAUUUAUAUGAGGAUGAGUUGGUGCCCCUUUUUGAGAAGGCCGGACCCAUUUGGGAUCUACGUCUUAUGAUGGAUCC	-0.181
GUCCUGUGCUACACAUCGUAUGUACCGAAUCGGGGAAAAAGGGGUGGGGAAAAAGGGGAAAGUAUUAUGUUACGCCGUUCGGAUCUGCAC	0.335
CCUCAAGUCCUGUGCUACACAUCGUAUGUACCGAAUCGGGGAGGGAGGGGAGGAAAGUAUUAUGUUACGCCGUUCGGAUCUGCACUUCCA	1.07
UGGGAGGUGGAUUUUGUUUAUUUUUUUAGCUAAUUUCCAGGGGUGGGAAUUUUUUUUUAAUAUGUGUCAUGAAUAAAGUUGUUUUUGAAA	-0.0122
CCUCAAGUCCUGUGCUACACAUCGUAUGUACCGAAUCGGGUGGGGUGGGUGGAAAGUAUUAUGUUACGCCGUUCGGAUCUGCACUUCCAG	1.38
UGGGAGGUGGAUUUUGUUUAUUUUUUUAGCUCAUUUCCAGGGGUAGGAAUUUUUUUUUAAUAUGUGUCAUGAAUAAAGUUGUUUUUGAAA	-0.289
ACCAUGCAGGUGGUCAUCUUUGGGAAGUGGGGCAAGGGGGGGAUAGGGAGGGGGGUAACACUUUGGGAACAGGUGGUCCCAGGUCGUUUC	0.842
CUCAAGUCCUGUGCUACACAUCGUAUGUACCGAAUCGGAAAGGAAAGGAAAGGGAAAGUAUUAUGUUACGCCGUUCGGAUCUGCACUUCC	-0.671
GCAGGAAGUAAAAACAAAUGGAAAUGCUUCAGAUAGUGGCAGGGGUGGGGGUUGCUAAGGAAAGGGUGGGAUGGGAGUGGGUAAAGAGUU	0.776
GUCCUGUGCUACACAUCGUAUGUACCGAAUCGGAAAAAGGAAAAAGGGGAAAAAGGGGAAAGUAUUAUGUUACGCCGUUCGGAUCUGCAC	-0.305
UGGCCCUGGUGGCAUGCGGGGAGGAAGAGGUGGCCUCAUGGAUCGUGGUGGUCCCGGUGGAAUGUUCAGAGGUGGCCGUGGUGGAGACGG	0.243
UGGGAGGUGGAUUUUGUUGAUUUUUUUAGCUCAUUUCCAGGGGUGGGAAUUUUUUUUUAAUAUGUGUCAUGAAUAAAGUUGUUUUUGAAA	0.652

Sample 4 — method: universal PBM; form: double-stranded DNA, one strand shown; sample: in vitro; concentration: 600 nM; direction: higher = stronger binding
Target: Sal-like protein 4, full length isoform A (SALL4, Homo sapiens, UniProt Q9UJQ4, residues 1-1053)
UniProt Q9UJQ4, sequence (whole entry, looked up): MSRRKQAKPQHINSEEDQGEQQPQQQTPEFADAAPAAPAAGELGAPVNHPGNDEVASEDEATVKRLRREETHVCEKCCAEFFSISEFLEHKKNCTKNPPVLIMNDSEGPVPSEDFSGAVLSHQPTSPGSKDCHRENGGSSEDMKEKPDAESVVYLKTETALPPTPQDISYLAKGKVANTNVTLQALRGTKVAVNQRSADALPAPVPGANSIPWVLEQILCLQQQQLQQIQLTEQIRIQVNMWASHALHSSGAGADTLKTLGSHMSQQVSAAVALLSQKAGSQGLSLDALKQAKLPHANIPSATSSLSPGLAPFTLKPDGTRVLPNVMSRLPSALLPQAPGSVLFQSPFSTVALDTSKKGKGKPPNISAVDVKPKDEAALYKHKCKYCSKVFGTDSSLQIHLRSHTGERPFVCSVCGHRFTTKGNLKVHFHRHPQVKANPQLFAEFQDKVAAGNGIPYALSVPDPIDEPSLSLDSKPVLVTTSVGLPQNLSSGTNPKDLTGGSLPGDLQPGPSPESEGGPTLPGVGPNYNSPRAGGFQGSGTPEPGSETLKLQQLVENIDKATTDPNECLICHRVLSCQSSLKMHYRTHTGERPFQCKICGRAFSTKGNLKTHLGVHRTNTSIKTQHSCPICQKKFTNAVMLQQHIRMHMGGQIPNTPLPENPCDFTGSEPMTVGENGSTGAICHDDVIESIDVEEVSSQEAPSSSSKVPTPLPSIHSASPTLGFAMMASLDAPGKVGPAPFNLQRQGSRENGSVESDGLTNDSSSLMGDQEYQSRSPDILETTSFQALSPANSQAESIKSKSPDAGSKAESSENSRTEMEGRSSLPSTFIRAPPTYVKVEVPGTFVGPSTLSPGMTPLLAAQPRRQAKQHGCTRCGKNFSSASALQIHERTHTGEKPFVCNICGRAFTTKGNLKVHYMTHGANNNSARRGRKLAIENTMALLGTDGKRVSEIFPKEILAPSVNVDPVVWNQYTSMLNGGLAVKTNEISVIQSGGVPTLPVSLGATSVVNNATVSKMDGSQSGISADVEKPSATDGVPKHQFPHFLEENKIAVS
Setting: 8-mer, flanks averaged, mean of replicates
Sequence	E-score
CCTCGCCA	-0.211
GGGGCACA	-0.0893
ACGCTACG	-0.0826
AACCAGCG	-0.228
GGGTCTGA	-0.227
GATGGTCA	-0.0569
ATGGCCTC	-0.131
ACCCTGCT	-0.131
GATGCTAC	0.0928
AAGCGAAC	-0.122
AGTAAGAT	0.211
GAAAGCTA	-0.0509
GAACGTCA	0.0514
CGCAAACC	-0.113
CAGACCGA	-0.183
CCGGACGA	-0.219
AGGTCCGA	-0.152
CACCCCAG	-0.267
AGTTCCGC	-0.171
ACTAATAC	0.218
TCATACGA	0.233
CGCCCTGA	-0.225
AGATCATA	0.202
AACTACTT	0.123
ACGCAACA	0.13

Sample 5 — method: protein-binding microarray; form: double-stranded DNA, one strand shown; sample: in vitro; concentration: 2540 nM top; setting: 60-bp whole probe; added: salmon DNA 0.4 mg/ml; reference: random background probes; direction: higher = stronger binding; all sequences stand within: GCCTAGCAC … GTCTTGATTCGCTTGACGCTGCTG
Target: Interferon regulatory factor 3, full length, phosphomimetic (IRF3, Homo sapiens, UniProt Q14653, residues 1-427, S386D/S396D/S398D/S402D/T404D/S405D)
Residues (chain): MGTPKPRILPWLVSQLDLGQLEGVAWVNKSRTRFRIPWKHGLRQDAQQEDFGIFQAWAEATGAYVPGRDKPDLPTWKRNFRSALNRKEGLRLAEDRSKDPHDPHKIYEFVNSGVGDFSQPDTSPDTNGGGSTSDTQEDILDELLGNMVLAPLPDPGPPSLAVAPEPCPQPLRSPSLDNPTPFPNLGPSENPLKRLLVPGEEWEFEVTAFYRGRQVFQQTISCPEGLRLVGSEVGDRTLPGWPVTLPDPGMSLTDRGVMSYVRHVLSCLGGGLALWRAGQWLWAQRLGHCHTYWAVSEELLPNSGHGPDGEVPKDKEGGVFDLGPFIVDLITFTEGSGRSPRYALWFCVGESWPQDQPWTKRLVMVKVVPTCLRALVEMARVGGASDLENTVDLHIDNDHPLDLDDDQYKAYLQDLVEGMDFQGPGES
Sequence	fitted relative affinity
GACGGTATCGGGTTTCGGAACGTGCTA	4.66 z-score
GGCCCTTTGCTTTCCTGATGGTGCTAG	0.635 z-score
TTAGGACTGGACTTCCGGTTAGTGCTA	-0.409 z-score
GTCGGTATCGGTATCGGGACGTGCTAG	5.96 z-score
AACGAACTGAGTTTCGAGACGTGCTAG	1.43 z-score
GACGGTCACCTTATCCTGACGTGCTAG	1.12 z-score
GACGGACTGCTTTTCATGACGTGCTAG	-0.0572 z-score
TTTGGTCTCGGTTTCGGTTAGTGCTAG	5.41 z-score
GACGCTCTCCTACTGCTGACGTGCTAG	0.401 z-score
TCATTATTTATTTTTACACTGTGCTAG	1 z-score
TTAGATATCGGGTAGCGATTAGTGCTA	-0.291 z-score
GCTCATTTTTTTTGCAAGCTGTGCTAG	1.05 z-score
TTAGGTTTCGGTATCGGTTGGTGCTAG	8.34 z-score
GACGGACTGGACACTGGGGCCGTGCTA	-0.824 z-score
TTAGGACTGGGTATCGTTTAGTGCTAG	0.0911 z-score
TTAGGTTTTCTTCTCCTTTAGTGCTAG	3.78 z-score
TCATACATGAGTTTAGAACTGTGCTAG	-0.11 z-score

A few entries again (sample 5):
Sequence	fitted relative affinity
GTCGGTATCGGTATCGGGACGTGCTAG	5.96 z-score
GACGGTATCGGGTTTCGGAACGTGCTA	4.66 z-score
GCTCATTTTTTTTGCAAGCTGTGCTAG	1.05 z-score
TCATTATTTATTTTTACACTGTGCTAG	1 z-score
GACGGACTGGACACTGGGGCCGTGCTA	-0.824 z-score
GACGGTCACCTTATCCTGACGTGCTAG	1.12 z-score
TTAGGTTTCGGTATCGGTTGGTGCTAG	8.34 z-score
TTAGGTTTTCTTCTCCTTTAGTGCTAG	3.78 z-score
TTAGGACTGGGTATCGTTTAGTGCTAG	0.0911 z-score
TTAGATATCGGGTAGCGATTAGTGCTA	-0.291 z-score
GGCCCTTTGCTTTCCTGATGGTGCTAG	0.635 z-score
TCATACATGAGTTTAGAACTGTGCTAG	-0.11 z-score
GACGGACTGCTTTTCATGACGTGCTAG	-0.0572 z-score
